# Measurements from different studies.
# Protocols differ between the studies behind these lines. ± marks the error that the study gave.
# Organism: Pseudomonas aeruginosa
Compound,test,test system,setting,how to read,measurement,result
CC1(C)SC2C(NC(=O)C(NC(=O)C3=C(O)C(Cc4ccccc4)NC3=O)c3ccccc3)C(=O)N2C1C(=O)O (centres unmarked),,pvdA mutant,,,MIC,12.5 µg/mL
Nc1nc2ccc(Oc3ccc(=O)[nH]c3)cc2s1,"swarming area, modified FAB agar",PA14-lux,"200 µM, 24 h",relative to: DMSO vehicle,inhibition,26%
CC(C)C[C@H](NC(=O)[C@H](CCN)NC(=O)[C@H](CCN)NC(=O)[C@@H](Cc1ccccc1)NC(=O)[C@H](CC(C)C)NC(=O)[C@H](CCN)NC(=O)[C@H](CCN)NC(=O)[C@H](N)CCN)C(N)=O,,PAO1,"24 h, 37 °C",,MBC,> 128 µM
CC(C)(C)OCC1NC(=O)C(C(=O)NC(C(=O)NC2C(=O)N3C2SC(C)(C)C3C(=O)O)c2ccccc2)=C1O (centres unmarked),,fpvA mutant,,,MIC,25 µg/mL
CC[C@H](C)[C@H](NC(=O)[C@H](Cc1c[nH]c2ccccc12)NC(=O)[C@@H](NC(=O)[C@H](Cc1ccccc1)NC(=O)[C@@H]1CCCN1C(=O)[C@@H](NC(=O)[C@H](C)N)[C@@H](C)CC)[C@@H](C)CC)C(=O)N[C@@H](Cc1ccccc1)C(=O)N[C@@H](CCCNC(=N)N)C(=O)N[C@@H](CC(C)C)C(=O)N[C@@H](CC(C)C)C(=O)N[C@@H](CCCNC(=N)N)C(=O)N[C@@H](CCCCN)C(=O)NCC(N)=O,,PAO1,"18 h, 37 °C",,MBC,> 15 µM
CNC(C)C1CCC(N)C(OC2C(N)CC(N)C(OC3OCC(C)(O)C(NC)C3O)C2O)O1 (centres unmarked),broth microdilution,,,,MLC,4 ± 1 µg/mL
N=C(N)NCCC[C@H](NC(=O)[C@H](Cc1c[nH]c2ccccc12)NC(=O)[C@H](CCCNC(=N)N)NC(=O)[C@@H](N)Cc1c[nH]c2ccccc12)C(=O)N[C@@H](Cc1ccccc1)C(=O)N[C@@H](CCC(N)=O)C(=O)N[C@@H](Cc1ccccc1)C(=O)N[C@@H](CCC(N)=O)C(=O)N[C@@H](Cc1ccccc1)C(=O)N[C@@H](CCCCN)C(N)=O,,,,,MBC,1130 µM
CC[C@H](C)[C@H](NC(=O)[C@H](C)NC(=O)[C@H](CCCCN)NC(=O)[C@H](CC(C)C)NC(=O)[C@H](C)NC(=O)[C@@H](NC(=O)[C@H](Cc1c[nH]cn1)NC(=O)[C@H](CC(C)C)NC(=O)[C@@H](NC(=O)[C@@H](NC(=O)[C@H](CCCCN)NC(=O)[C@H](C)NC(=O)[C@H](C)NC(=O)[C@H](CO)NC(=O)[C@H](CCCCN)NC(=O)[C@H](Cc1ccccc1)NC(=O)[C@@H](NC(=O)[C@H](CCCCN)NC(=O)[C@H](CC(C)C)NC(=O)[C@H](Cc1ccccc1)NC(=O)[C@H](CO)NC(=O)[C@H](CCCCN)NC(=O)[C@H](Cc1c[nH]c2ccccc12)NC(=O)[C@H](CCCCN)NC(C)=O)[C@@H](C)O)[C@@H](C)O)C(C)C)[C@@H](C)O)C(=O)N[C@@H](CO)C(=O)N[C@@H](CO)C(N)=O,,IPM-S,43 strains,,MIC90,16 µg/mL
CC[C@H](C)[C@H](NC(=O)[C@H](Cc1c[nH]c2ccccc12)NC(=O)[C@@H](NC(=O)[C@H](Cc1c[nH]c2ccccc12)NC(=O)[C@@H]1CCCN1C(=O)[C@@H](NC(=O)[C@H](C)N)[C@@H](C)CC)[C@@H](C)CC)C(=O)N[C@@H](Cc1c[nH]c2ccccc12)C(=O)N[C@@H](CCCNC(=N)N)C(=O)N[C@@H](CC(C)C)C(=O)N[C@@H](CC(C)C)C(=O)N[C@@H](CCCNC(=N)N)C(=O)N[C@@H](CCCCN)C(=O)NCC(N)=O,,PAO1,"18 h, 37 °C",,MBC,> 15 µM
NC(=O)COc1ccc2nc(N)sc2c1,pyocyanin production,PA14-lux,"200 µM, 18 h",relative to: DMSO vehicle,inhibition,11.7%
CCCCCCCCCCCc1c([N+](=O)[O-])oc2ccc3ccccc3c12,REMA,,,,MIC90,> 32 µg/mL
N=C(N)NCCC[C@H](NC(=O)[C@@H](N)CCCNC(=N)N)C(=O)N[C@@H](Cc1c[nH]c2ccccc12)C(=O)N[C@@H](Cc1c[nH]c2ccccc12)C(=O)N[C@@H](CCC(N)=O)C(=O)N[C@@H](Cc1ccccc1)C(=O)N[C@@H](CCC(N)=O)C(=O)N[C@@H](Cc1ccccc1)C(=O)N[C@@H](CCCCN)C(N)=O,,,,,MBC,620 µM
CC(C)C[C@H](NC(=O)[C@H](CCN)NC(=O)[C@H](CCN)NC(=O)[C@@H](Cc1ccccc1)NC(=O)[C@H](CC(C)C)NC(=O)[C@H](CCN)NC(=O)[C@H](CCN)NC(=O)[C@@H](CCN)NC(=O)CCSCCOC(=O)c1ccc(C(C)(C)C)cc1)C(N)=O,,PAO1,"24 h, 37 °C",,MBC,16 µM
CNC(=O)COc1ccc2nc(N)sc2c1,pyocyanin production,PA14-lux,"200 µM, 18 h",relative to: DMSO vehicle,inhibition,13.9%
CCCCc1c([N+](=O)[O-])oc2ccc3ccccc3c12,REMA,,,,MIC90,> 32 µg/mL
COc1cc(C#CC(=O)c2ccccc2OC)ccc1O,,,"10 µM, 24 h",relative to: untreated,rhamnolipid production,31%
Cn1c(=O)ccc2ccc(F)c(CCNC[C@H]3CN(c4cnc5c(n4)NC(=O)CO5)C(=O)O3)c21,,,,,MIC50,0.5 µg/mL
COC(=O)c1ccc2c(ccc3oc([N+](=O)[O-])cc32)c1,REMA,,,,MIC90,> 32 µg/mL
O=C(C#Cc1ccc(F)c(F)c1)c1ccccc1Cl,,,"10 µM, 24 h",relative to: untreated,rhamnolipid production,30%
Nc1nc2ccc(Oc3cccnc3)cc2s1,"swarming area, modified FAB agar",PA14-lux,"200 µM, 24 h",relative to: DMSO vehicle,inhibition,48%
CC1(C)SC2C(NC(=O)C(NC(=O)C3=C(O)C4CCCN4C3=O)c3ccccc3)C(=O)N2C1C(=O)O (centres unmarked),broth microdilution,TonB-dependent receptor mutant,PA two-allele library,,MIC,25 µg/mL
CC[C@H](C)[C@H](NC(=O)[C@H](CC(C)C)NC(=O)[C@H](CC(C)C)NC(=O)[C@H](Cc1c[nH]cn1)NC(=O)[C@H](CCCCN)NC(=O)[C@H](Cc1c[nH]cn1)NC(=O)[C@H](CCCNC(=N)N)NC(=O)[C@@H]1CCCN1C(=O)[C@H](Cc1ccc(O)cc1)NC(=O)[C@H](CC(C)C)NC(=O)[C@H](CCC(N)=O)NC(=O)[C@@H](N)CO)C(=O)N[C@@H](CCCCN)C(=O)N[C@@H](CCCNC(=N)N)C(=O)N[C@@H](CO)C(=O)N[C@@H](CC(C)C)C(=O)N[C@@H](CCCNC(=N)N)C(=O)N[C@@H](CS)C(=O)N[C@@H](CCCNC(=N)N)C(=O)N[C@@H](CCCCN)C(=O)N[C@@H](CS)C(=O)O,,,,,MBC,32 µg/mL
Nc1nc2ccc(Oc3ccc4nc(N)sc4c3)cc2s1,LC-MS,,"concentration not given, 24 h",,pyocyanin-related PCN production,decreased
O=C(O)CN(CC(=O)O)CC(=O)O,,VIM-2 producer,"32 µg/mL, added: meropenem",,meropenem MIC,2 µg/mL
COc1cc(C#CC(=O)CC(C)C)ccc1O,,,"10 µM, 24 h",relative to: untreated,rhamnolipid production,32%
CC[C@H](C)[C@H](NC(=O)[C@H](Cc1ccccc1)NC(=O)[C@@H](NC(=O)[C@H](CO)NC(=O)[C@@H](N)CCCNC(=N)N)[C@@H](C)CC)C(=O)N[C@@H](CCCCN)C(=O)N[C@@H](Cc1ccc(O)cc1)C(=O)N[C@@H](CCCCN)C(=O)N[C@@H](CO)C(=O)N[C@@H](CCCCN)C(=O)N1CCC[C@H]1C(=O)N[C@@H](Cc1ccccc1)C(=O)N[C@@H](CS)C(=O)N[C@@H](CCC(=O)O)C(=O)N[C@@H](CCCCN)C(=O)N[C@@H](CC(C)C)C(=O)N[C@@H](CC(C)C)C(=O)N[C@@H](CO)C(=O)N[C@@H](Cc1c[nH]c2ccccc12)C(=O)N[C@H](C(=O)N[C@@H](CCCCN)C(=O)N[C@@H](CO)C(=O)O)C(C)C,,,,,MBC,8 µg/mL
CC[C@H](C)[C@H](NC(=O)[C@H](Cc1ccccc1)NC(=O)[C@@H](NC(=O)[C@H](Cc1ccccc1)NC(=O)[C@@H]1CCCN1C(=O)[C@@H](NC(=O)[C@H](C)N)[C@@H](C)CC)[C@@H](C)CC)C(=O)N[C@@H](Cc1c[nH]c2ccccc12)C(=O)N[C@@H](CCCNC(=N)N)C(=O)N[C@@H](CC(C)C)C(=O)N[C@@H](CC(C)C)C(=O)N[C@@H](CCCNC(=N)N)C(=O)N[C@@H](CCCCN)C(=O)NCC(N)=O,,PAO1,"18 h, 37 °C",,MBC,> 15 µM
Cn1cc([S+]([O-])c2ccc3nc(N)sc3c2)cn1 (centres unmarked),pyocyanin production,PA14-lux,"200 µM, 18 h",relative to: DMSO vehicle,inhibition,5.24%
COc1cccc(C(=O)C#Cc2ccc(O)c(OC)c2)c1,,,"10 µM, 24 h",relative to: untreated,pyocyanin production,56%
COc1ccc2ccc3oc([N+](=O)[O-])cc3c2c1Br,REMA,,,,MIC90,> 32 µg/mL
CC(C)CC1NC(=O)C(C(=O)NC(C(=O)NC2C(=O)N3C2SC(C)(C)C3C(=O)O)c2ccccc2)=C1O (centres unmarked),,fpvB mutant,,,MIC,25 µg/mL
O=C(O)c1cccc(C(=O)O)n1,,IMP-7 producer,"32 µg/mL, added: meropenem",relative to: meropenem alone,fold MIC reduction,4
O=C(C#Cc1ccc(F)c(F)c1)c1cccc(Cl)c1,,,"10 µM, 24 h",relative to: untreated,pyocyanin production,49%
COc1ccc2c(ccc3oc([N+](=O)[O-])cc32)c1,REMA,,,,MIC90,> 32 µg/mL
COc1cccc(C(=O)C#Cc2ccc(F)c(F)c2)c1,,,"10 µM, 24 h",relative to: untreated,pyocyanin production,42%
CCOC(=O)COc1ccc2ccc3oc([N+](=O)[O-])cc3c2c1,REMA,,,,MIC90,> 32 µg/mL
COc1ccccc1C(=O)C#Cc1ccc(F)c(F)c1,,,"10 µM, 24 h",relative to: untreated,exoprotease production,85%
Nc1ccc(S(=O)(=O)c2ccc3nc(N)sc3c2)cn1,"swarming area, modified FAB agar",PA14-lux,"200 µM, 24 h",relative to: DMSO vehicle,inhibition,25.2%
